Published values pooled from the literature.
Each line is one published result; not all experiments were run side by side. Numbers after ± are the reported error.
gag-pol reverse transcriptase: Gag-Pol polyprotein, reverse transcriptase (gag-pol, Human immunodeficiency virus 1, UniProt P03366)

Sequences of proteins named here, by UniProt entry; tags and fusion partners are left off. Residues count along the entry.
UniProt P14340, 281-571 limits assumed: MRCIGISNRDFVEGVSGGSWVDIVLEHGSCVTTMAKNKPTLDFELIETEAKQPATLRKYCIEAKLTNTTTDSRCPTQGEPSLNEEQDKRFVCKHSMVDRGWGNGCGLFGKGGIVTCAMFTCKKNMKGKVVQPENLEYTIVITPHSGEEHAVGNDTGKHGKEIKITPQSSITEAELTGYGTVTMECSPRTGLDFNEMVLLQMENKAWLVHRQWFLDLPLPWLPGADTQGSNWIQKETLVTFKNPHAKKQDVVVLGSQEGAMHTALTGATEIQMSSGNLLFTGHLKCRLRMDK
UniProt P07237, 18-508 limits assumed: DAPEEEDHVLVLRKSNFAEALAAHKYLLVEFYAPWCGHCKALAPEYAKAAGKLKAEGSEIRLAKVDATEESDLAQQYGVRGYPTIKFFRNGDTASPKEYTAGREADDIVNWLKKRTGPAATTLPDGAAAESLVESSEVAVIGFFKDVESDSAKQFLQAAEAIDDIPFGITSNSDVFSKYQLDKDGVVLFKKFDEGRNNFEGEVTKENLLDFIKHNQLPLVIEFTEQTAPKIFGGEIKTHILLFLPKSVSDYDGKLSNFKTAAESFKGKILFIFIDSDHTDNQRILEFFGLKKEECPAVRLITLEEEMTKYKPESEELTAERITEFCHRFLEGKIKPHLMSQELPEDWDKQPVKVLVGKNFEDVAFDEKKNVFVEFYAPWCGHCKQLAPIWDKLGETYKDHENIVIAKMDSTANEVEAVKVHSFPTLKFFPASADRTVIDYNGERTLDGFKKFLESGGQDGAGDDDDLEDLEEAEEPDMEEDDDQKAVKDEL
UniProt Q9Y2R2, whole entry, looked up: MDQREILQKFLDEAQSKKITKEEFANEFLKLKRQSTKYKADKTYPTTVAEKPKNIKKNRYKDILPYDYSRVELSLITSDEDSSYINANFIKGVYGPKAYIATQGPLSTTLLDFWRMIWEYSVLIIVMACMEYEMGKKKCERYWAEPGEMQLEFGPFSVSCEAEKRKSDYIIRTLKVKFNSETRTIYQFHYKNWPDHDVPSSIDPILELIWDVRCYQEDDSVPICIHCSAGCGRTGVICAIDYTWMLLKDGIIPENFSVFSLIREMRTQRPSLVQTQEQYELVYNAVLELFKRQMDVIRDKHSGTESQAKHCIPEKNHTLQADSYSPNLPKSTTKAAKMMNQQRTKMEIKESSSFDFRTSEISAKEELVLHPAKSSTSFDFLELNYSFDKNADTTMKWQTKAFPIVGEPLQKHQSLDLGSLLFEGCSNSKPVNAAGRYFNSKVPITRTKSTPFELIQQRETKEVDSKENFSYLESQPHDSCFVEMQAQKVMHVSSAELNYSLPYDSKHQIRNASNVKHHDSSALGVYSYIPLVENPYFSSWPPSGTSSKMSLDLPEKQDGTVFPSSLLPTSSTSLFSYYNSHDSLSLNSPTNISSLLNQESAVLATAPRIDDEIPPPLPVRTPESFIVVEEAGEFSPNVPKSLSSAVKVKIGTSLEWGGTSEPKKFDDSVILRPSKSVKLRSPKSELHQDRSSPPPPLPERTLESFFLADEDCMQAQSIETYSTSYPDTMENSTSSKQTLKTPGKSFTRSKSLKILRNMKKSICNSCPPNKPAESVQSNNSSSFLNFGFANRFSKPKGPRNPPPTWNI
UniProt P37136, 32-574 limits assumed: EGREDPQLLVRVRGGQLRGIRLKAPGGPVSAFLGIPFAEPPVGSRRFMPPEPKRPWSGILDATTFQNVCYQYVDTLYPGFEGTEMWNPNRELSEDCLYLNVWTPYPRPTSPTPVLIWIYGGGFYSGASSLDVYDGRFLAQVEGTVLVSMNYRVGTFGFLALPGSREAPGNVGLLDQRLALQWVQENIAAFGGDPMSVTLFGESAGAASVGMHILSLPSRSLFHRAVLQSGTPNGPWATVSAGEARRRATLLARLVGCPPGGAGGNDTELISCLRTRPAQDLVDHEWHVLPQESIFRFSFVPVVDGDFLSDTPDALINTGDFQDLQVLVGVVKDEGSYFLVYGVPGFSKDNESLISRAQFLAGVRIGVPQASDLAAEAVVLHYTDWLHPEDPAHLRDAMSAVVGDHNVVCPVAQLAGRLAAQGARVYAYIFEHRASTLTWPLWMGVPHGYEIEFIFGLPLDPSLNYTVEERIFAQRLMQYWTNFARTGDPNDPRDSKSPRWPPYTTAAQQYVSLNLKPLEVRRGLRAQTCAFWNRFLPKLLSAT
UniProt P30561, 10-848 limits assumed: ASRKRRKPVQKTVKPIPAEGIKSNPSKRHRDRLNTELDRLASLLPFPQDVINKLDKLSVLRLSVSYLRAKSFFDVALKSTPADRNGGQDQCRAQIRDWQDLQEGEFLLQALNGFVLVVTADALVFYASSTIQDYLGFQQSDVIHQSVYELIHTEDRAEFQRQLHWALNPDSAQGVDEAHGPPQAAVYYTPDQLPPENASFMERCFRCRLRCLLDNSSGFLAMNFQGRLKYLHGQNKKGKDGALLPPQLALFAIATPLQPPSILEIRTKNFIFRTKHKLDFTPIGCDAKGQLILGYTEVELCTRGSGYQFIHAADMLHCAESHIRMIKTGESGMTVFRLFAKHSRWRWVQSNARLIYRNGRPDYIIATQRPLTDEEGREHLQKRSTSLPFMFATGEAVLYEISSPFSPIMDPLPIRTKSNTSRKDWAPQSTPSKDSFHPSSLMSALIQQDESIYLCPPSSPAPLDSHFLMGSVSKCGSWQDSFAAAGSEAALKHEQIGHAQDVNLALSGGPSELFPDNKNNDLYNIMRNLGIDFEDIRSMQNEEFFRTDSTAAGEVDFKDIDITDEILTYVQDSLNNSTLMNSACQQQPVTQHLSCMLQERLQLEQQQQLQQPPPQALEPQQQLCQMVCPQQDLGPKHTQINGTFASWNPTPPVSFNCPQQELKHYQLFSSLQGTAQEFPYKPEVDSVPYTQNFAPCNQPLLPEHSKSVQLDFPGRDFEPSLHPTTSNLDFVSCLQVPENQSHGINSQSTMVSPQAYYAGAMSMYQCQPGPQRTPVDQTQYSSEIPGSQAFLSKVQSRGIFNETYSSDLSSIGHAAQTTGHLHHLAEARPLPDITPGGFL
UniProt P05556, 21-798 limits assumed: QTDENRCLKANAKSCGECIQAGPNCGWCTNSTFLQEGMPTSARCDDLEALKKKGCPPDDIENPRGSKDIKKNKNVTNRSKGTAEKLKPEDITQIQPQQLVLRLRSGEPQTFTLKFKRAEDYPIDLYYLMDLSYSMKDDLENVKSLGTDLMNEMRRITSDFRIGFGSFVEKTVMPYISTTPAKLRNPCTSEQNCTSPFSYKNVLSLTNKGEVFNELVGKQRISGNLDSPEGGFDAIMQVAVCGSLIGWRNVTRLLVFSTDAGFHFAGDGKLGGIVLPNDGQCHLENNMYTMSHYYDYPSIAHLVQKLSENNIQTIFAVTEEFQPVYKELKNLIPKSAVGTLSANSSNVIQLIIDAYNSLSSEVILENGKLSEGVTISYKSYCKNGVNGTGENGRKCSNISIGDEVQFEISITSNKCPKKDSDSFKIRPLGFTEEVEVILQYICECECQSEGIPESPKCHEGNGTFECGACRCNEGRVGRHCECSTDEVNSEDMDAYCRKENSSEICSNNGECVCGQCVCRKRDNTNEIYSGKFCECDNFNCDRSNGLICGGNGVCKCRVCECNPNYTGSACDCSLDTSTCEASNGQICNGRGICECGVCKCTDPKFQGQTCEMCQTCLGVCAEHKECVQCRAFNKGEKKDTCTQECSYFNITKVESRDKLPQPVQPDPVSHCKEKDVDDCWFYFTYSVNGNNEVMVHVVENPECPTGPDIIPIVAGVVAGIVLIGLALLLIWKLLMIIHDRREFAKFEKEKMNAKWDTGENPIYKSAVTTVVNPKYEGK
UniProt P17787, whole entry, looked up: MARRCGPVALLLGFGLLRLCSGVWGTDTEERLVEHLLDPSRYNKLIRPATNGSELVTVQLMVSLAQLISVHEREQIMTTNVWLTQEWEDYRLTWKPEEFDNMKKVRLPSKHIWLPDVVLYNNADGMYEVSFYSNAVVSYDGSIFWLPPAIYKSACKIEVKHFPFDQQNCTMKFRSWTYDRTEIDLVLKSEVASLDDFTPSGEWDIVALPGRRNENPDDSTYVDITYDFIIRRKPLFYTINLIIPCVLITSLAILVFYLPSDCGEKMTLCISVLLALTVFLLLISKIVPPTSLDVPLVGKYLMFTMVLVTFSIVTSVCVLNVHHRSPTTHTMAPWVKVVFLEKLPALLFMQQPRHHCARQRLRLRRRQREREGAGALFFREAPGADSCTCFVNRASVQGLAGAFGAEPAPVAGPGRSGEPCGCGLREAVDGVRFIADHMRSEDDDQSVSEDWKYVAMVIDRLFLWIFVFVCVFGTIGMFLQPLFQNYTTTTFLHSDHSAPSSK
UniProt P32297, whole entry, looked up: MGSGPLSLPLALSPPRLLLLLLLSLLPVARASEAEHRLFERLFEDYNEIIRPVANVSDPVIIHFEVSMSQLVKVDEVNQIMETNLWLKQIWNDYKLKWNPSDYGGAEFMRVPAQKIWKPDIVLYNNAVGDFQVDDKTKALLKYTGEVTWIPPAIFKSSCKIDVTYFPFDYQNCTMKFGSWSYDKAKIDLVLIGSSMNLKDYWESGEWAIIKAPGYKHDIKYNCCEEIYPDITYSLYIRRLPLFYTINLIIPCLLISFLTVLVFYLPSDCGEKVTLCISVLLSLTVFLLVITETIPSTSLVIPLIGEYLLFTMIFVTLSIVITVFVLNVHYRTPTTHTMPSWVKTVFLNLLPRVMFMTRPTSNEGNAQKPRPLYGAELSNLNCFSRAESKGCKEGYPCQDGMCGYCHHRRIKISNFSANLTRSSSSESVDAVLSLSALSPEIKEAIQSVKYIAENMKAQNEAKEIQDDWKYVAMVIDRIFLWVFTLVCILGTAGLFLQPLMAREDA
UniProt Q05901, whole entry, looked up: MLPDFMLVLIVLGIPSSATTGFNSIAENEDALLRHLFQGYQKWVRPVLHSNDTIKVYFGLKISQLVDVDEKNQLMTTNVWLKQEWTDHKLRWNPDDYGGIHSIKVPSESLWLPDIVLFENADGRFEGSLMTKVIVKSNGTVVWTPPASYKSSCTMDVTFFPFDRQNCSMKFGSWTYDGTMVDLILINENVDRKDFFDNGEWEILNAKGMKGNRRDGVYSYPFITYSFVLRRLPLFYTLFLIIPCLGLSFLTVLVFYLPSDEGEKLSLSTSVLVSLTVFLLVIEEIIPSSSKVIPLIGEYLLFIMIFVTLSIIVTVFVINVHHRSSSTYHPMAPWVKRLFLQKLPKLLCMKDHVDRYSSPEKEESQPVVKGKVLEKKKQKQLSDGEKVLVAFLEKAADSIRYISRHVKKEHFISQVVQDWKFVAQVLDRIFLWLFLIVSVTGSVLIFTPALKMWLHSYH
UniProt Q15825, whole entry M241L/F253L/V300I/V303I/V320I/I327V/R339S/K347N, looked up: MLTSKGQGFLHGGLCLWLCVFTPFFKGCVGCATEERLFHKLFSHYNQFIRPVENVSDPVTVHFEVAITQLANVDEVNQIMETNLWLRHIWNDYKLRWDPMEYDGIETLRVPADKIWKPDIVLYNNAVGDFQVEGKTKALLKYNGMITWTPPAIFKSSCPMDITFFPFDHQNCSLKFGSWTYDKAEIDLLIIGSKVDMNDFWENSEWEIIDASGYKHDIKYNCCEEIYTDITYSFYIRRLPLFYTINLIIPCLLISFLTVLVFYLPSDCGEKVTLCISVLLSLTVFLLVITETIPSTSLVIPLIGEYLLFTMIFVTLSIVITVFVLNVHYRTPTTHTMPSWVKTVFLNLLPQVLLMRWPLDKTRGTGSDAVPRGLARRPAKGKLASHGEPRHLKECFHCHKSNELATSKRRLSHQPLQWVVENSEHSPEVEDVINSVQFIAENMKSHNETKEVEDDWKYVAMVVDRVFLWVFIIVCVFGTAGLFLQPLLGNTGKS
UniProt P62136, whole entry: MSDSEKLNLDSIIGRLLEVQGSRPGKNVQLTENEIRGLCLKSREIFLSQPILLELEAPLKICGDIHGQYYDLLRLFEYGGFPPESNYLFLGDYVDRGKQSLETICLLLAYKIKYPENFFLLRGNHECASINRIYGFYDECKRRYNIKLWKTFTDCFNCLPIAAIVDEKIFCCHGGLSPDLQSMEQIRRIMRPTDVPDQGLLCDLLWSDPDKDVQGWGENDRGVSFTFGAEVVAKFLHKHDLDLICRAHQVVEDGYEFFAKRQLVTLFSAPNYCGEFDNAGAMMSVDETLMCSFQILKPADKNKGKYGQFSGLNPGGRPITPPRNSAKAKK
UniProt Q9Y5Y6, 615-854 F708A limits assumed: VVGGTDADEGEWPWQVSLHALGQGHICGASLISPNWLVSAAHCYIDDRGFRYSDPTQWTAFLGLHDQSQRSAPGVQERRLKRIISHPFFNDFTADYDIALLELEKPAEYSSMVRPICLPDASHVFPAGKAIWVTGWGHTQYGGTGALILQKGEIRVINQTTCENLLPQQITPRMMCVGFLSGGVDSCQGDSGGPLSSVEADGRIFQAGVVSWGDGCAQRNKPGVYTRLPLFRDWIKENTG

CCOC(=O)c1c(-c2ccc(Cl)cc2Cl)n(-c2nc(-c3ccc(Cl)cc3)c3c(NC(=O)c4ccccc4)nnc-3[nH]2)[nH]c1=O  CC50 (A498; SRB): 5.25 µM
Cc1nn(-c2ccc(Cl)cc2)c2c1C(c1cc(Cl)ccc1Cl)C(C#N)=C(N)O2 (centres unmarked)  viability (Vero E6; 6.3 µM): 72.1%
COC(=O)c1cc(Cl)ccc1NC(=O)CSc1ncc(S(=O)(=O)c2ccc(Br)cc2)c(=O)[nH]1  IC50 (Genome polyprotein, envelope domains I-II (Dengue virus type 2, UniProt P14340)): 4300 nM
Fc1ccc(Nc2nc3nonc3nc2Nc2cccc(C(F)(F)F)c2)cc1  IC50 (Protein disulfide-isomerase (P4HB, Homo sapiens, UniProt P07237)): 292000 nM
O=S1(=O)CCC(NC(=S)SSC(=S)NC2CCS(=O)(=O)C2)C1 (centres unmarked)  IC50 (Tyrosine-protein phosphatase non-receptor type 22 (PTPN22, Homo sapiens, UniProt Q9Y2R2); phosphatase activity, inhibitor; pH 6.5, enzyme 5 nM, with: DiFMUP 1.5 µM): 13000 ± 1000 nM
Cc1cc(I)cc(C)c1Oc1ccnc(Nc2ccc(C#N)cc2)n1  IC50 (gag-pol reverse transcriptase; dTTP incorporation (correct pair), inhibitor; 15 min, 37 °C, with: dNTP 5 µM): 13 nM
Cc1cn([C@@H]2CC[C@H](OC(C(=O)O)P(=O)(O)O)C2)c(=O)[nH]c1=O (relative stereo)  IC50 (gag-pol reverse transcriptase; reverse transcriptase activity, inhibitor; with: poly(rA)·oligo(dT) template/primer): 400 ± 50 nM
COP(=O)(OC)Oc1ccc([N+](=O)[O-])cc1Cl  IC50 (Acetylcholinesterase (Ache, Rattus norvegicus, UniProt P37136); enzyme activity, inhibitor, discontinuous Ellman; rat, postnatal day 12, rat lung homogenate; 15 min, 37 °C): 100 nM
O=C(CSc1nccn1C1CCCCC1)Nc1cc(C(F)(F)F)ccc1Cl  IC50 (Dihydroorotate dehydrogenase (quinone), mitochondrial (PFF0160c, Plasmodium falciparum, UniProt Q08210); enzyme activity, inhibitor, DCIP colorimetric): 701 ± 140 nM
COc1ccc(NC(=O)C2C3CCC(O3)C2C(=O)O)c(OC)c1 (centres unmarked)  IC50 (Serine/threonine-protein phosphatase 5 (Homo sapiens, UniProt P53041); inhibitor, fluorescence; with: DiFMUP substrate): 4160 ± 200 nM
Cc1nn(-c2ccc(Cl)cc2)c2c1C(c1ccc(O)cc1)C(C#N)=C(N)O2 (centres unmarked)  viability (Vero E6; 0.4 µM): 84.4%
O=[N+]([O-])c1cc(C(F)(F)F)ccc1NCc1ccsc1  IC50 (Aryl hydrocarbon receptor (Ahr, Mus musculus, UniProt P30561); radioligand binding; in vitro synthesised receptor; with: [3H]TCDD): 630 nM
C[C@@H]1NC(=O)[C@H](CCC(=O)O)NC(=O)CNC(=O)[C@H](CC(=O)O)NC(=O)CNC(=O)[C@H](CCCCN)NC(=O)[C@@H](Cc2ccc(O)cc2)NC1=O [isotope labelled]  IC50 (Integrin alpha2/beta1 (Homo sapiens, UniProt P05556+P17301); binding, competitive cell binding; CL1-5; 1 h, pH 7.4, room temperature, with: 68Ga-DOTA-A2B1): 4230 ± 250 nM
CC[C@H](C)[C@@H]1NC(=O)[C@H](CCC(=O)O)NC(=O)[C@@H]2CCCN2C(=O)[C@H](Cc2c[nH]cn2)NC(=O)[C@H](CCCNC(=N)N)NC(=O)[C@H](C(C)C)NC(=O)[C@H](CC(N)=O)NC(=O)[C@@H]2CSSC[C@H](NC(=O)CN)C(=O)N[C@@H](CSSC[C@@H](C(N)=O)NC1=O)C(=O)N[C@@H](CO)C(=O)N[C@@H](Cc1c[nH]cn1)C(=O)N1CCC[C@H]1C(=O)N[C@@H](C(C)C)C(=O)N2  IC50 (Neuronal acetylcholine receptor; alpha3/alpha6/beta2/beta3 (Homo sapiens, UniProt P17787+P32297+Q05901+Q15825); ion current, antagonist, two-electrode voltage clamp; Xenopus oocytes; human, with: ACh 100 µM): 135 nM
N#Cc1c(-c2ccc(Cl)cc2Cl)n(-c2nc(-c3ccc(Cl)cc3)c3c(NC(=O)c4ccccc4)nnc-3[nH]2)[nH]c1=O  CC50 (SR; SRB): > 100 µM
CN1CCN(C(c2ccccn2)c2cc(Cl)c3cccnc3c2O)CC1 (centres unmarked)  IC50 (Serine/threonine-protein phosphatase PP1-alpha catalytic subunit (PPP1CA, Homo sapiens, UniProt P62136); phosphatase activity, inhibitor; preincubation ~10 min at 23 °C, with: radiolabelled phosphorylase A): 4900 ± 200 nM
N=C(N)c1ccc(C(NC(=O)COCC(=O)NCCCOCCOCCOCCCNC(=O)CCCC[C@@H]2SC[C@@H]3NC(=O)N[C@@H]32)P(=O)(Oc2ccccc2)Oc2ccccc2)cc1 (some centres unmarked)  IC50 (Suppressor of tumorigenicity 14 protein (ST14, Homo sapiens, UniProt Q9Y5Y6, F708A); enzyme activity, inhibitor; 4 h preincubation): 1500 ± 40 nM

Repeated from above:
Cc1nn(-c2ccc(Cl)cc2)c2c1C(c1cc(Cl)ccc1Cl)C(C#N)=C(N)O2 (centres unmarked)  viability (Vero E6; 6.3 µM): 72.1%
O=[N+]([O-])c1cc(C(F)(F)F)ccc1NCc1ccsc1  IC50 (Aryl hydrocarbon receptor (Ahr, Mus musculus, UniProt P30561); radioligand binding; in vitro synthesised receptor; with: [3H]TCDD): 630 nM
